Experimental data pooled from the literature.
A part holds a random share of what one study measured. Substitutions count along the parent as printed.

Set 1
Target: CCNE2, cyclin fold, Cln2 fusion (human)
Technique: yeast growth competition, sequencing
Matrix: yeast
Setting: weak parent motif
Baseline: not given
Direction: higher = stronger binding
Parent: RB1 docking peptide (human); PKPLKKLRFDIEG; partner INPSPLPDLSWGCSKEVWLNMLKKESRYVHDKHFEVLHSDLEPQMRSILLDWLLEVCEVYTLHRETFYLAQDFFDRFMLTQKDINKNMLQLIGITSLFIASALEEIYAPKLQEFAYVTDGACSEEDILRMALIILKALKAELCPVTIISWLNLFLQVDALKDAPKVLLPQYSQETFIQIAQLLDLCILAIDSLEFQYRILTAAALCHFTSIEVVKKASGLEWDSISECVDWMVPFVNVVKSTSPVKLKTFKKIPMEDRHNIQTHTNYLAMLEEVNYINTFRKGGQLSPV
| Substitution | normalised enrichment score |
| --- | --- |
| PKPLKKLRFDIGG [E12G] | 0.81 |
| PKPLKKLRFDPEG [I11P] | 0.328 |
| PKDLKKLRFDIEG [P3D] | 0.921 |
| PKPLKKLWFDIEG [R8W] | 0.329 |
| AKPLKKLRFDIEG [P1A] | 0.0367 |
| PKPLKGLRFDIEG [K6G] | 0.452 |
| PKPLKKLRYDIEG [F9Y] | -0.525 |
| PKPMKKLRFDIEG [L4M] | 1.06 |
| PKCLKKLRFDIEG [P3C] | 1.75 |

Set 2
Target: RING finger protein unkempt homolog, zinc fingers 1-6, GST-SBP tag (UNK, Homo sapiens, UniProt Q9C0B0, residues 30-357)
Technique: RNA Bind-n-Seq
Molecule type: RNA
Matrix: in vitro
Tested at: not given
Setting: RNA with constant flanks, human-mouse chimeric sites, ends assumed
Baseline: input RNA pool
Direction: higher = stronger binding
All sequences stand within: GGGAGUUCUACAGUCCGACGAUC … CAACAGAGGAUUGAGCAUCA
Target sequence (chain): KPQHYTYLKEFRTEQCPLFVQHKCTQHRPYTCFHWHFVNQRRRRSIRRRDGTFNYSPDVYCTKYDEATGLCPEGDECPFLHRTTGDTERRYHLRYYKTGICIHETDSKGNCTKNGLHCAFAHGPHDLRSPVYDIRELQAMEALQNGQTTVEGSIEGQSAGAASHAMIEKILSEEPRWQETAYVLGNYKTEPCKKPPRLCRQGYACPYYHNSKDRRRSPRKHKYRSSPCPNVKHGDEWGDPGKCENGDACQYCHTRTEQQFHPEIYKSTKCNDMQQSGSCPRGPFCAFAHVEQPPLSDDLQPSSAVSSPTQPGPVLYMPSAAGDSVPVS
| Strand | bound/input enrichment [ratio] |
| --- | --- |
| GGGGAGAAACCUUACGAGUGUGUGCAGUGUGGGAAAUCCUACAGUCAGAGCUCAAACCUCUUCAGACAUCAGAGACGACACAAUGCAGAAAAACUUCUGAAUGUUGUGAAGGUUUAAGAA | 0.129 |
| GACUUUGGGACUGGUCCUCGUAAUGCAGCCUACUAUAGCCCUCAUGGACAUAUAUUAGUGCUGGCUGGAUUUGGAAAUCUUCGAGGACAAAUGGAAGUAUGGGAUGUUAAAAACUACAAG | 0.385 |
| GCAGGAUCUUCUAAGUACCAGUGGGACAUUAUGAAAUCCCUUGGGCUCUCUGAUGACGAGAUAGUAAAGUUUUCUGAAGCAGAGCACUGGCUUGAUUAUUUCCCACCACUGGCUAUUCAG | 0.18 |
| GAAUCCUCCCGUGCAAAUCCCACAACAACCAAGCUCACAGCAGCAGCAUCUUAGUCACAGUAGGGUAGUUUUGGGGCUCUGUGGCCAGGGUUUUAUUCACAUGCAGGUUUGGAAAAUGUA | 2.31 |
| CGAGACAAGACAUCCAGGAACAUGCGAGGCUCCCGGAUGAAUGGGUUGCCUAGCCCCACUCACAGCGCCCACUGUAGCUUCUACAGAACCAGAACCUUGCAGGCACUGAGUAAUGAGAAG | 0.0932 |
| UAAGUUAUUUUGUACAGCUUUGUAAAUUCUUAACAUUUUUAUAUUGCCAUGUUUAUUUUGUUUGGGUGCUUUAUUAAAUUAAGUACAAAACCAAAUAAAUGAACAUCUUUUUCAGUAAUU | 1.03 |
| CGCAGAAGGUUAAAGGGUGAGAGUGGGGUGGAAGACUGUGUCAUGGCUCUGGAGACACUGUUCAGUGUUCUGCUUUCUCUGUGCAGACUGAUGGCCCCUUACACGCCCUUUCUGACUGAG | 0.0703 |
| GUGUCCUGCUUUCAACUUAAAUCACUGAGGCAUCUCUACUGUUCUGUGAGCAUCAGGAUUUUAGUGCUUGCCACCACCAUGAGAGUUCAGAAGCAGCCUUUCUGUGGAGGGUGGGAAUGA | 0.189 |

Set 3
Target: Interferon regulatory factor 5, full length, phosphomimetic (IRF5, Homo sapiens, UniProt Q13568-2, residues 1-514, K96S/S451D/S453D/S456D/S462D)
Technique: protein-binding microarray
Molecule type: double-stranded DNA, one strand shown
Matrix: in vitro
Tested at: 250 nM
Setting: 60-bp whole probe
Together with: salmon DNA 0.4 mg/ml
Baseline: random background probes
Direction: higher = stronger binding
All sequences stand within: GCCTAGCAC … GTGCTAGGTCTTGATTCGCTTGACGCTGCTG
| Strand | log fluorescence |
| --- | --- |
| TCACACACCATTCTCGGACT | 0.0553 z-score |
| TCATCATTCCTGATCTCACT | 0.0186 z-score |
| TCAACTTTCACTTCTCCACT | 7.46 z-score |
| GTCGGTCTCGGTTTCGGGAC | 4.33 z-score |
| TTAGGTATCCTTATCCCTTA | 0.101 z-score |

Mixed results
| Substance | target | test | system | setting | scale | quantity | result |
| --- | --- | --- | --- | --- | --- | --- | --- |
| PhoQ, residues 284 288 289 292 302 303 TLASMF | PhoP, residues 12 14 15 18 19 STWGI (Escherichia coli, UniProt P23836) | Sort-seq, item: YFP reporter | E. coli | PhoQ-PhoP variant library, together with: 10 µM Mg2+ | baseline: high Mg2+ state, higher = stronger signaling | fold induction | 3.01 |

Some of these lines once more (set 2):
| Strand | bound/input enrichment [ratio] |
| --- | --- |
| UAAGUUAUUUUGUACAGCUUUGUAAAUUCUUAACAUUUUUAUAUUGCCAUGUUUAUUUUGUUUGGGUGCUUUAUUAAAUUAAGUACAAAACCAAAUAAAUGAACAUCUUUUUCAGUAAUU | 1.03 |
| CGCAGAAGGUUAAAGGGUGAGAGUGGGGUGGAAGACUGUGUCAUGGCUCUGGAGACACUGUUCAGUGUUCUGCUUUCUCUGUGCAGACUGAUGGCCCCUUACACGCCCUUUCUGACUGAG | 0.0703 |
| GUGUCCUGCUUUCAACUUAAAUCACUGAGGCAUCUCUACUGUUCUGUGAGCAUCAGGAUUUUAGUGCUUGCCACCACCAUGAGAGUUCAGAAGCAGCCUUUCUGUGGAGGGUGGGAAUGA | 0.189 |
